Measured values gathered from unrelated publications.
Every numbered part comes from another study and shows a few of its results, in no order.

Set 1
Target: RNA binding protein fox-1 homolog 2, RRM domain, GST-SBP tag (RBFOX2, Homo sapiens, UniProt O43251-10, residues 100-194)
Technique: RNA Bind-n-Seq
Molecule type: RNA
Sample: in vitro
Concentration: 365 nM
Notes: natural RNA segment, single round, ends assumed
Relative to: no-protein control
Direction: higher = stronger binding
All sequences stand within: GGGAGUUCUACAGUCCGACGAUC … UGGAAUUCUCGGGUGCCAA
Target sequence (chain): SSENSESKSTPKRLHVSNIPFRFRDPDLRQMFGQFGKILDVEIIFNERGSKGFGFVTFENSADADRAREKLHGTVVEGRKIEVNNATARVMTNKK
Strand	RBNS enrichment (R)
GGGGAAGACGAUUAACACACCUCUUACAGUAAUACUGCCUGUUAUUGGUAUAGCAGUGGUAUUUGCAGACUGGGAUCAUAAGGAGCCCUUAAAUACUUGUUAUUGACUGG	0.289
CCCGCAGUGUGCGGUUCGUGCCCUUAACCACCCGCUUCUUUGUUUCCCGCCCCUCUGCUUUCGCAGGAGCUCUUGUGCUUGAGUUCAGUGUUAGUGGUAGCGUGGCUCAC	0.37
CACAAGGGCCGGCAUCACCAGACCAGCUGAGGACAACUCAGACUGACAGUUGGACAAACAUUGCGACGUUUUCGUUUAAGCAAAUACAGGUGCAUUUAAAAAACACGACU	0.336
UGCAAGAUUUUAAAAGUUUUGUUCUUUUAUAGACUGAUUUAGAAAAACAAAUGAUUAGUUAAAAAAAGAAAAUAUACAUUUGUUGGUAACUAAUGUUAUUUUUUAAAACC	0.668
CACCAGCUGUGAAUUCUCCUGCAGACAGGAGGGCCCUGGCUGUGCACCUGGGGAAGUGGUUGCCCUGGGGCCAGGGUGCUUGUUCUGUUCAAAUAAAGGUACCUCUUUUC	1.88
ACAUCCCCUGCUGCUUGGUUGACCCCCCCAAAUCCAGGGUCACUGCUCAGCUCUGCUUAUAGCUAUACCUGCCUCUUAGGUCUUCUGUUUGCCCGUUUCUGAGGUCAGAU	0.307
CAUCUCUGACUGAGGUGUUUUUGUUUGGUUUUGUUUUUUAAAAUCAUGUAUUUGCUACAAAGUAUUGUACUUGUCUCAAUGGGAAUGGUGUAAAAAACAAAAGGCCUUAU	0.375
AAUUUUAUAGGGAAAAGGGUAUCAUGAUUGAAUUCAGAAUCUUACUUUAUAAGGUCAGUGUGCAUUUGUUCUAGUUAUAAUGCUUUUAAAUUGUACUUUUUCUUCCCAUG	0.412

Set 2
Target: Sal-like protein 4, full length isoform B (SALL4, Homo sapiens, UniProt Q9UJQ4-2, residues 1-616)
Technique: universal PBM
Molecule type: double-stranded DNA, one strand shown
Sample: in vitro
Concentration: not given
Notes: 8-mer, flanks averaged, mean of replicates
Direction: higher = stronger binding
Residues (chain): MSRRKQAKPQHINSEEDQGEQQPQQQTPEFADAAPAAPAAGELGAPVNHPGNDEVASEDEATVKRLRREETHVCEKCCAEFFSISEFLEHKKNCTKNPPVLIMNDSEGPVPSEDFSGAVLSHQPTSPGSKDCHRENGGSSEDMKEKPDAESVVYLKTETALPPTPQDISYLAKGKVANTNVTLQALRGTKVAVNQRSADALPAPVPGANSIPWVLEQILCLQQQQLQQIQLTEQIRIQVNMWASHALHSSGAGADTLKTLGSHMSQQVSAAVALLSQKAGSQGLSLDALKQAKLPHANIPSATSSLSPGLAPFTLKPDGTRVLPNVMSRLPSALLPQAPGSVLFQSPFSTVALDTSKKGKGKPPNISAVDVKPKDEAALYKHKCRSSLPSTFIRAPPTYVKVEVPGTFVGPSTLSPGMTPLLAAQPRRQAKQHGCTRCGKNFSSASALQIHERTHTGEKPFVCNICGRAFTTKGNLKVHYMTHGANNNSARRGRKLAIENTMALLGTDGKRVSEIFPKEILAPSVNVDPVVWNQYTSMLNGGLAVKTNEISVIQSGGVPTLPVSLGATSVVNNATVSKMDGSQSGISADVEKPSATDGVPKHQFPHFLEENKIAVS
Strand	E-score
CGGGAAGA	0.0125
CATGTGTA	0.234
CCCTGCCC	-0.269
CTAGTGGA	-0.201
CAGCGGCC	-0.316
ACCTGCAA	-0.14
GGTAGACC	-0.164
AGCGCCAA	-0.0418

Set 3
Target: Prothrombin, mature alpha-thrombin (F2, Homo sapiens, UniProt P00734)
Technique: aptamer microarray, sandwich
Molecule type: DNA with 2'F-ANA
Sample: in vitro
Concentration: 200 nM
Notes: whole 15-mer aptamer, many near background
Added: Cy3 exosite-II aptamer, 400 nM
Direction: higher = stronger binding
Strand: GGTTGGTGTGGTTGG
Modification	mean fluorescence intensity [a.u.]
2'F-ANA at 1 3 5 7 8 11 14	45
2'F-ANA at 3 4 7 10 11 12 15	376
2'F-ANA at 4 5 12 14	43.2
2'F-ANA at 2 3 8 9 10 11 12 13 15	389
2'F-ANA at 1 4 5 6 8 9 10 12 13 15	213
2'F-ANA at 3 4 6 7 8 11 13	479
2'F-ANA at 1 2 3 4 10 11 13	80.1
2'F-ANA at 2 5 6 7 8 10 14	52.7
2'F-ANA at 3 4 9 12 15	928
2'F-ANA at 2 4 6 7 8 9 15	321

Single results of other studies
Substance	target	test	test system	conditions	scale	endpoint	value
PhoQ, residues 284 288 289 292 302 303 AGGCYF	PhoP, residues 12 14 15 18 19 LQHIR (Escherichia coli, UniProt P23836)	Sort-seq, measured: YFP reporter	E. coli	PhoQ-PhoP variant library, added: 10 µM Mg2+	relative to: high Mg2+ state, higher = stronger signaling	fold induction	2.59

For quick reference, copied from above (set 2):
Strand	E-score
CAGCGGCC	-0.316
ACCTGCAA	-0.14
